Measured values collected from several papers.
Compare with care: the assays were run in different laboratories.
CDK4 with cyclin D1: Cyclin-dependent kinase 4, with cyclin D1 (CDK4, Homo sapiens, UniProt P11802)
CDK4 with cyclin D3: Cyclin-dependent kinase 4, with cyclin D3 (CDK4, Homo sapiens, UniProt P11802)
CDK4: Cyclin-dependent kinase 4 (CDK4, Homo sapiens, UniProt P11802)

`COc1c(Cl)cccc1Nc1c(-c2ccncc2C#C[C@@]2(C)CCCN2C(=O)/C=C/CN(C)C)[nH]c2c1C(=O)NCC2` gave a remaining binding of 73% (CDK4 with cyclin D1; binding, competition with immobilised ligand; 3 µM).
For `CC(C)=CC1OC(C)(C)C2C=C3C(=O)C(Cl)=CC(O)C3C3C(O)C4OC4C(=O)C132` (stereo not shown), the remaining binding was 87% (CDK4 with cyclin D3; cell-free assay, competition with immobilised ligand; 10 µM).
`CNC1C[S+]2CC[S+]3CC[S+](C1)[Ru-4]321([N]=C=S)[n]2c3ccc(OC)cc3c3c4c(c5cc(F)c[n+]1c5c32)C(=O)NC4=O` (stereo not shown) has a remaining binding of 95% (CDK4 with cyclin D1; KinomeScan; 0.1 µM; reference: untreated).
`C=CC(=O)N1CCc2ccc(-n3c(=O)ccc4cnc5ccc(-c6cnn(C)c6)cc5c43)cc21` gave a remaining binding of 94% (CDK4 with cyclin D1; KINOMEscan; 1 µM; reference: DMSO control).
`Cc1ccc(-c2c(/C=C(\C#N)C(=O)NC(C)C)n(CCCO)c3ncnc(N)c23)cc1` gave a remaining binding of 100% (CDK4 with cyclin D1; cell-free assay, competition with immobilised ligand; 1 µM).
With `C=CC(=O)N1CCCC(n2c(=O)c3ncccc3n(Cc3ccc(Oc4ccccc4)cc3)c2=O)C1` (stereo not shown) the remaining binding was 79% (CDK4 with cyclin D1; cell-free assay, competition with immobilised ligand; 1 µM).
`O=C(Nc1cc(-c2ccnc3[nH]ccc23)c(Cl)cn1)[C@H]1CCC[C@@H](NC(=O)C(F)(F)F)C1` has a remaining binding of 12% (CDK4 with cyclin D1; kinome scan; 0.1 µM; reference: control).
The remaining binding of `CNC(=O)C1CCN(c2cc(C)c(F)cc2NC(=O)c2ccc(-c3cc(O)ccc3C)c(C)c2)CC1` is reported as 100% (CDK4 with cyclin D1; binding, competition with immobilised ligand; 1 µM).
`CCN1CCN(Cc2ccc(C(=O)Nc3ccc(C)c(NCc4cnc5[nH]ccc5c4OC)c3)cc2C(F)(F)F)CC1` has a remaining binding of 100% (CDK4 with cyclin D1; binding, competition with immobilised ligand; 1 µM).
With `Cc1cnc2nc1Nc1cccc(c1)COC/C=C/COCc1cc(ccc1OCCN1CCOCC1)N2` the remaining binding was 96% (CDK4; binding; 0.1 µM).
The remaining binding of `COc1cc(Nc2nccc(-c3cnn4nc(OC)ccc34)n2)cc(C(F)(F)F)c1` is reported as 100% (CDK4; binding, competition with immobilised ligand; 1 µM).
With `C[C@]1(O)CCCN(c2nc(Nc3ccc(S(=O)(=O)N[C@H]4CC[C@H](CN5CCN(c6ccc(C7CCC(=O)NC7=O)cc6F)CC5)CC4)cc3)ncc2C(F)(F)F)C1` (stereo partly shown) the remaining binding was 52% (CDK4 with cyclin D3; binding, competition with immobilised ligand; 1 µM).
`Nc1ncc2c(n1)-c1c([nH]c3ccc(C4=CCOCC4)cc13)CCC2` gave a remaining binding of 100% (CDK4; binding, competition with immobilised ligand; 1 µM).
